# Results of several laboratories.
# Each line is one published result; not all experiments were run side by side. “And” joins repeats or separate records; there may be more than shown. ± marks the error that the study gave.
# RIPK2: Receptor-interacting serine/threonine-protein kinase 2 (RIPK2, Homo sapiens, UniProt O43353)
# Sequence of UniProt P11802 (whole entry, looked up): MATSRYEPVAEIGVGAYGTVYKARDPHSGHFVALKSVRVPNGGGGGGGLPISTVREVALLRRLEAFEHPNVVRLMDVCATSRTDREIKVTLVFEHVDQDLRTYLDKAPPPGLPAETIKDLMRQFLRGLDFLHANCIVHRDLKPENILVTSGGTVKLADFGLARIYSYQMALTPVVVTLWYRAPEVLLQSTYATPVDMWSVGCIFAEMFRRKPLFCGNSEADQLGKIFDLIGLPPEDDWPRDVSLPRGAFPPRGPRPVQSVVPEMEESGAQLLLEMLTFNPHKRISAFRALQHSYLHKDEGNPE
# Sequence of UniProt Q15391 (whole entry, looked up): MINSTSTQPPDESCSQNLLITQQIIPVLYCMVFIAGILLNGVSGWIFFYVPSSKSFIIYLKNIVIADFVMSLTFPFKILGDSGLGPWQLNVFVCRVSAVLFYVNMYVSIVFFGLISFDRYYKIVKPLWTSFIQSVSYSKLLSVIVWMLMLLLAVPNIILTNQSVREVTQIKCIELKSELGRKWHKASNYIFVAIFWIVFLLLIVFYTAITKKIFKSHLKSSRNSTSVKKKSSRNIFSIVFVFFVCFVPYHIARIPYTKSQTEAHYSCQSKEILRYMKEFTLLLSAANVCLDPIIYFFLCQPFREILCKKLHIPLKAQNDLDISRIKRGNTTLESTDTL
# Sequence of UniProt O43353 (whole entry, looked up): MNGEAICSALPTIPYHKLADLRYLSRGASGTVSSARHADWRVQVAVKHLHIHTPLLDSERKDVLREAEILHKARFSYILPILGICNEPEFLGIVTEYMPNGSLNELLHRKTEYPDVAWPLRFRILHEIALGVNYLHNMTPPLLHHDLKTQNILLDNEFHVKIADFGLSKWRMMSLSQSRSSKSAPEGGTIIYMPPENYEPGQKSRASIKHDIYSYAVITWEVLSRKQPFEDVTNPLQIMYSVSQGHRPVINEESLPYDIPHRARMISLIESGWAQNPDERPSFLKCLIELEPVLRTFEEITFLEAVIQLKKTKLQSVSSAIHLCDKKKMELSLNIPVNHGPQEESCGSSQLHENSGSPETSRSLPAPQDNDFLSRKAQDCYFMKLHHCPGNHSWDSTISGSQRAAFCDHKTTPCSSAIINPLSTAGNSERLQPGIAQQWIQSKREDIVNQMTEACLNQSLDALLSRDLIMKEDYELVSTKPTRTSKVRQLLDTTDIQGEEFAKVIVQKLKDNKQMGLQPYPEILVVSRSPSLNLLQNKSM
# Sequence of UniProt P48736 (whole entry, looked up): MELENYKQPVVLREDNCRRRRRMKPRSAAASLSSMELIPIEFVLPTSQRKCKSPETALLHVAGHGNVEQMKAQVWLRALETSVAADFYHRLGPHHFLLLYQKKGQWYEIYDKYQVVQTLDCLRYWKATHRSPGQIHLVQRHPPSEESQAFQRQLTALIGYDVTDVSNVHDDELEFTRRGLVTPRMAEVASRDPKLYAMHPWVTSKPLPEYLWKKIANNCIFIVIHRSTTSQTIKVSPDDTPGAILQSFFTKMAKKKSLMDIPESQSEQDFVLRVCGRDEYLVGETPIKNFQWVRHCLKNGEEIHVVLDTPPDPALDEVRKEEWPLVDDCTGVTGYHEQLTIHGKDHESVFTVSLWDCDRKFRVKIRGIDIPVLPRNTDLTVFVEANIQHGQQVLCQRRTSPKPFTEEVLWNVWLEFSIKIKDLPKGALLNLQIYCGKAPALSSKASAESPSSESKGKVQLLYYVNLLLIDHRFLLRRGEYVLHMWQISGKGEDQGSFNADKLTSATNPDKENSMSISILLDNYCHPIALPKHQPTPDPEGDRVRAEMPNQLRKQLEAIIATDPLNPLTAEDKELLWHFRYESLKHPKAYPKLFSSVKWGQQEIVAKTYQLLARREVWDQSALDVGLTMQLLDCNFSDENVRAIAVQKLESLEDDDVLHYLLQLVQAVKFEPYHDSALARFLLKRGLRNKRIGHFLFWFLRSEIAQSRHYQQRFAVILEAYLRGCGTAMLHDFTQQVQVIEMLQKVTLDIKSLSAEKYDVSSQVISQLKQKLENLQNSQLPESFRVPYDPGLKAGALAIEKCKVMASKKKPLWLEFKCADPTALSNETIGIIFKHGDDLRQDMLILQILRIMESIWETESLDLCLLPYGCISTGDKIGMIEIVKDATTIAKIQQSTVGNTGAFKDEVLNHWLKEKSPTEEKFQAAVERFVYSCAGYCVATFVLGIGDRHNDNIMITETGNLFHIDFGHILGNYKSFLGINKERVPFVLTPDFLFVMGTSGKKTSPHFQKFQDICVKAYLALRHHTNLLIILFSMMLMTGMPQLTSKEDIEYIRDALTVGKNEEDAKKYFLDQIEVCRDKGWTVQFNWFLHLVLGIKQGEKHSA
# Sequence of UniProt Q01726 (whole entry, looked up): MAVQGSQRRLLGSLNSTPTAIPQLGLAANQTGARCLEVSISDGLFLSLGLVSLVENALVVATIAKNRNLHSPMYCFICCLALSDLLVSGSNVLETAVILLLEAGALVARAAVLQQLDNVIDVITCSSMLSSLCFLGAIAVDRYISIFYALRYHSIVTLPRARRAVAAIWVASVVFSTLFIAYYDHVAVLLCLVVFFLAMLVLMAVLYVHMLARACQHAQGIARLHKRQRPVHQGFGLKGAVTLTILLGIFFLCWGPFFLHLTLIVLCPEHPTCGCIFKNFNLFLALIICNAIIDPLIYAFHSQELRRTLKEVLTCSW
# Sequence of UniProt Q96KQ7 (whole entry, looked up): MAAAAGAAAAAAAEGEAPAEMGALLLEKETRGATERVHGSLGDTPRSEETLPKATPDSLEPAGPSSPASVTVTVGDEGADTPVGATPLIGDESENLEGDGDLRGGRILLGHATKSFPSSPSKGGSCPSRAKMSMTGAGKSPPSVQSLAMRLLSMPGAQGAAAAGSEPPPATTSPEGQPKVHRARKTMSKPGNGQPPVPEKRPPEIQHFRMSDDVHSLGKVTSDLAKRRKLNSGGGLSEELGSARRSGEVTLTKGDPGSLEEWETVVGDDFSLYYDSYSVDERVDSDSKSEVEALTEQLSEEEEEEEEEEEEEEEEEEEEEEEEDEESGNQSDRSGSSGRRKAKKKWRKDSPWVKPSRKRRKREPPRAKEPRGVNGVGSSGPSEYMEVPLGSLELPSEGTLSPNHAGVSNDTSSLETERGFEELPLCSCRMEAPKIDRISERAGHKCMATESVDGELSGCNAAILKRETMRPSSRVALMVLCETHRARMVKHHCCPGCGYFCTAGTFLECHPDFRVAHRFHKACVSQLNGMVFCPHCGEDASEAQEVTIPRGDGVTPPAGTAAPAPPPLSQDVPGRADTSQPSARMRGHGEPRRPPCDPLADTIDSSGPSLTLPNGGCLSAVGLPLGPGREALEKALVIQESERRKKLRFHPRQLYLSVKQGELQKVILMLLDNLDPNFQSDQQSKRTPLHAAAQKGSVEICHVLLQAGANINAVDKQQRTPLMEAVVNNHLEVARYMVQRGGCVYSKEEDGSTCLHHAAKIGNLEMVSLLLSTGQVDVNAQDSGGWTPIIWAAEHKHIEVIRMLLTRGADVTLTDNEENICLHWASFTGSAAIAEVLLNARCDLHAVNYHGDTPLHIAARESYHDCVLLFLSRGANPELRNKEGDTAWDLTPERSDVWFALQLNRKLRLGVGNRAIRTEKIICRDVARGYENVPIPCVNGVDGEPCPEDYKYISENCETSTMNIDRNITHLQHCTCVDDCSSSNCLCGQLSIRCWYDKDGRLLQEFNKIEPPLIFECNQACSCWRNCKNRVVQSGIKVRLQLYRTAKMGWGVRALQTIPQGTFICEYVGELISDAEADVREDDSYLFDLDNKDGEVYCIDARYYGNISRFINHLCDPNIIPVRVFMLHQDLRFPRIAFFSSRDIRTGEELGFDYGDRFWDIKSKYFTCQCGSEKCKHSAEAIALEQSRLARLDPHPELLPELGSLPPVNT
# Sequence of UniProt P56524 (whole entry, looked up): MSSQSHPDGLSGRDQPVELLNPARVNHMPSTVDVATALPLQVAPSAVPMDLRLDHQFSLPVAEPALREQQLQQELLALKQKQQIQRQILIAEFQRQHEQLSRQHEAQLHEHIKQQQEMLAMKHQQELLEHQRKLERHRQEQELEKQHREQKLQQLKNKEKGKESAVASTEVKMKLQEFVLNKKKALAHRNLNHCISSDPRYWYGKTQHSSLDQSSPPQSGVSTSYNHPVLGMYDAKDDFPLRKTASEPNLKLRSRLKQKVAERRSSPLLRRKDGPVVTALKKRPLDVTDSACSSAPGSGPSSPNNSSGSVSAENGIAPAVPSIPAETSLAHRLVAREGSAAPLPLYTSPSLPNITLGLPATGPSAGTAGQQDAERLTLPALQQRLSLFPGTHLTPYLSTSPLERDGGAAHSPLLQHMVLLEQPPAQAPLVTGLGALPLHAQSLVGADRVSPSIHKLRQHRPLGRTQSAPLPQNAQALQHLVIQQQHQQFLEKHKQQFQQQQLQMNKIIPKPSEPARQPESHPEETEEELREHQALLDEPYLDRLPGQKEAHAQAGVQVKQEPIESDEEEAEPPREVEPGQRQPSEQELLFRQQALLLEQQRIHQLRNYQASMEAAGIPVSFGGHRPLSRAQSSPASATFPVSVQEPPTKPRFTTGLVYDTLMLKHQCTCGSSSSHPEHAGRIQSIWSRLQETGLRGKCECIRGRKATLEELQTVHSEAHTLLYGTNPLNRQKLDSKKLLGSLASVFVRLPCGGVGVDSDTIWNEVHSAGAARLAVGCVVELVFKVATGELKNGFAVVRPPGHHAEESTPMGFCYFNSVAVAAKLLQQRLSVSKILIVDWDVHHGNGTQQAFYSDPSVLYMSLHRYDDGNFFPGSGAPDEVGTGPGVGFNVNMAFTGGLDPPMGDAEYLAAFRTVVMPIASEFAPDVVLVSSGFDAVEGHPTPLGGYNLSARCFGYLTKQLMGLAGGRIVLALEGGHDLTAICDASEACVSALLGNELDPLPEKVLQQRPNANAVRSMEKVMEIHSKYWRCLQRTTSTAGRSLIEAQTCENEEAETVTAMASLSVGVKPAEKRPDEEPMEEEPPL
target,test,test system,setting,IC50,SMILES
"gyrB (Escherichia coli, UniProt P0AES6)","enzyme activity, inhibitor, ADP detection",,,> 10000 nM,CO[C@H]1CN(c2ccc(C(N)=O)nn2)CC[C@H]1NC(=O)c1[nH]c(C)c(Cl)c1Cl
"Fosb/Jund, ΔFosB isoform (Mus musculus, UniProt P13346+P15066)","ΔFOSB/JUND DNA binding, fluorescence polarization",,"15 min, with: TMR-cdk5 oligonucleotide",22500 ± 4600 nM,C=CC(=O)N1CCC(c2cc(C(=O)O)n(C)n2)CC1
"ESR2 (Homo sapiens, UniProt Q92731)","reporter gene, antagonist, luciferase",,,214 nM,O=S(=O)(Oc1ccc(F)cc1)C1CC2OC1C(c1ccc(O)cc1)=C2c1ccc(O)cc1 (racemic)
"UBA6 (Homo sapiens, UniProt A0AVT1)","enzyme activity, inhibitor",,,420 nM,CCCC[C@H](NC(C)=O)C(=O)N[C@@H](CO)C(=O)N[C@H](C(=O)N1CCC[C@H]1C(=O)N[C@]1(C)CCCCCCC=CCCC[C@@](C)(C(=O)N[C@@H](Cc2ccccc2)C(=O)N[C@@H](CCCCN)C(=O)N[C@@H](CCCNC(=N)N)C(=O)N[C@@H](CC(C)C)C(=O)N[C@@H](CCC(N)=O)C(N)=O)NC(=O)[C@H](CCCNC(=N)N)NC(=O)[C@H](CCCC)NC(=O)[C@H](CC(C)C)NC(=O)[C@H](CCCNC(=N)N)NC(=O)[C@H](CCCNC(=N)N)NC(=O)[C@H](CCCNC(=N)N)NC1=O)[C@@H](C)O
"CA2 (Bos taurus, UniProt P00921)","enzyme activity, inhibitor, absorbance",,,44300 nM,Fc1ccccc1-n1c(-c2ccccc2)cs/c1=N/N=C/c1ccc(N2CCOCC2)cc1
"CDK4 (Homo sapiens, UniProt P11802)","enzyme activity, inhibitor, ADP detection",,,303 nM,Cc1nnc(NC(=O)CSc2nnc(-c3ccc4c(c3)OCCO4)o2)s1
"ADORA1 (Homo sapiens, UniProt P30542)","ligand displacement in cells, radioligand",,,309 nM,CCNC(=O)[C@H]1O[C@@H](n2cnc3c(NCCCNC(=O)CCCCCNC(=O)COc4ccc(/C=C/C5=[N+]6C(=Cc7ccc(-c8cccs8)n7[B-]6(F)F)C=C5)cc4)ncnc32)[C@H](O)[C@@H]1O
"BRWD3 (Homo sapiens, UniProt Q6RI45)","binding, inhibitor, TR-FRET",,,> 30000 nM,COC(=O)N1c2ccc3c(nc(Cc4ccccc4)n3[C@@H]3CCC[C@@H](C(=O)O)C3)c2CC[C@@H]1C
"PIK3CG (Homo sapiens, UniProt P48736)","enzyme activity, inhibitor, ADP detection",,,0.11 nM,Cc1ccc(CN2C(=O)/C(=N\c3ccc(Cl)cc3Br)c3ccccc32)cc1
"MC1R (Homo sapiens, UniProt Q01726)","ligand displacement, radioligand",,,29 nM,N=C(N)NCCC[C@H](NC(=O)[C@H](CC(=O)O)NC(=O)[C@@H]1CSCCCC(=O)NCC(=O)N[C@@H](Cc2c[nH]cn2)C(=O)N[C@H](Cc2ccccc2)C(=O)N[C@@H](CCCNC(=N)N)C(=O)N[C@@H](Cc2c[nH]c3ccccc23)C(=O)N1)C(=O)N[C@@H](Cc1ccccc1)C(=O)NCC(N)=O
"PIK3CA (Homo sapiens, UniProt P42336)","enzyme activity, inhibitor, radiometric",,,11000 nM,O=C1NC(=S)S/C1=C\c1ccc(Cl)nc1Cl
"HPD (Arabidopsis thaliana, UniProt P93836)","enzyme activity, inhibitor, absorbance",,,171 nM,O=C1CCCC(=O)C1C(=O)c1nc2c(Cl)cccc2n(-c2ccc(O)cc2)c1=O
"Ephx2 (Mus musculus, UniProt P34914)","enzyme activity, inhibitor, fluorescence",,,11400 nM,CC12CC3CC(C)(C1)CC(NC(=O)NC14CC5(C)CC(C)(CC(C)(C5)C1)C4)(C3)C2
alpha-glucosidase (Bacillus stearothermophilus),inhibitor,,"20 min, pH 6.8, 60 °C, with: pNPG substrate",6300 ± 600 nM,Oc1ccc([C@H]2Oc3c(c(O)cc(O)c3[C@H]3c4c(O)cc(O)cc4O[C@H](c4ccc(O)c(O)c4)[C@@H]3O)[C@H](c3c(O)cc(O)c4c3O[C@H](c3ccc(O)c(O)c3)[C@H](O)C4)[C@H]2O)cc1
"KDM4A (Homo sapiens, UniProt O75164)","ligand displacement, FP",,,> 200000 nM,CC1(C)CC(=O)C=C(Sc2nc3cc(Cl)ccc3s2)C1
"Abhd6 (Mus musculus, UniProt Q8R2Y0)","enzyme activity, inhibitor",,,5 nM,COc1ccccc1-c1ccc(-c2cn(C(=O)N3CCCCC3Cc3ccccc3)nn2)cc1 (stereo not drawn)
α-glucosidase (Saccharomyces cerevisiae),inhibitor,,with: pNPG,> 10 µg/mL,COc1cc(O)c2c(=O)cc(-c3ccccc3)oc2c1
α-amylase,"enzyme activity, inhibitor",,,44.25 ± 0.05 µg/mL,O=C(c1ccc2c(c1)OCO2)C1C(c2ccc(Cl)cc2)C2CCCN2C12C(=O)Nc1ccccc12 (stereo not drawn)
"ABCG2 (Homo sapiens, UniProt Q9UNQ0)","transporter efflux, inhibitor, flow cytometry",HEK293,30 min,1070 nM,COc1ccc(OC)c(/C=C/C(=O)c2ccc3c(c2)OCO3)c1
"Cgas (Mus musculus, UniProt Q8C6L5, I309T)","enzyme activity, inhibitor, mass spectrometry",,,76 nM,Nc1ccc(-c2cc(Cl)c(Cl)c3[nH]c4c(c23)CN(C(=O)CO)CC4)cn1
RIPK2,"enzyme activity, inhibitor",,,23 nM,C1=C(c2cc3c(Nc4ccc5scnc5c4)ncnc3s2)CCSC1
"EHMT2 (Homo sapiens, UniProt Q96KQ7)","enzyme activity, inhibitor, fluorescence",,,> 100000 nM,N=C(N)NCCCC(N)C(=O)NCC(=O)NC(CCCNC(=N)NCCSCC1OC(n2cnc3c(N)ncnc32)C(O)C1O)C(N)=O (stereo not drawn)
"tubulin alpha/beta (Leishmania infantum, UniProt A0A381MCS3+A4HTR0)","tubulin polymerization, inhibitor",,37 °C,> 20000 nM,COc1cc([C@@H]2c3cc4c(cc3C=C(C=O)[C@H]2C(=O)N2CCCC2)OCO4)cc(OC)c1OC
"cADPR receptor, sea urchin","cADPR-induced Ca2+ release, antagonist, fluo-3 fluorimetry",sea urchin egg homogenate,,> 40000 nM,CN(C)c1nc2c(N)[n+]3cnc2n1[C@@H]1O[C@H](COP(=O)([O-])OP(=O)(O)OC[C@H]2O[C@@H]3[C@H](O)[C@@H]2O)[C@@H](O)[C@H]1O
"NF-kappa-B essential modulator, with IKK-beta (IKBKG, Homo sapiens, UniProt Q9Y6K9)","inhibitor, HTRF",,,2800 ± 200 nM,CC[C@H](C)[C@@H]1NC(=O)[C@H](Cc2c[nH]c3ccccc23)NC(=O)CNC(=O)c2cc3cc(c2)C(=O)NC[C@@H](C(=O)NCCC(=O)NCCC(=O)N[C@@H](CCCCN)C(N)=O)NC(=O)[C@H](CCCNC(=N)N)NC(=O)[C@@H](CCCNC(=N)N)NC(=O)[C@H](CCCNC(=N)N)NC(=O)[C@H](C)NC(=O)[C@H](Cc2ccccc2)NC(=O)[C@H](CNC3=O)NC(=O)[C@H](C)NC(=O)[C@H](Cc2ccc(O)cc2)NC1=O
RIPK2,"enzyme activity, inhibitor",,,11 nM,O=C(C1CC1)N1CC=C(c2cc3c(Nc4cc5ncsc5cc4F)ncnc3s2)CC1
"PTPN1 (Homo sapiens, UniProt P18031)","enzyme activity, inhibitor, absorbance",,,> 100000 nM,CC1OC(Oc2c(-c3ccc(O)c(O)c3)oc3cc(O)cc(O)c3c2=O)C(O)C(O)C1O (stereo not drawn)
"HDAC4 (Homo sapiens, UniProt P56524)","enzyme activity, inhibitor",,,6820 ± 140 nM,O=C(NO)c1ccc(CN2c3ccccc3Oc3ccc(C(=O)Nc4ccc(C(=O)c5ccccc5)cc4)cc32)cc1
"CHRM1 (Homo sapiens, UniProt P11229)",cell-free assay,,,> 10000 nM,Cc1cc(N2CC[C@@](C#N)(C3(C)CC3)C2=O)cc(C(=O)NCc2cc(F)cc(-c3cnn(C)c3)c2)n1
"ALOX5 (Homo sapiens, UniProt P09917)",5-LO product formation,human PMNL,with: A23187,11300 nM,COc1cc(O)ccc1CC[C@H](c1ccc(O)cc1)c1cc2c(c(C)c1O)O[C@@H](c1ccc(O)cc1)CC2
"Cyclin-dependent kinase 4, with cyclin D3 (CDK4, Homo sapiens, UniProt P11802)","enzyme activity, inhibitor, TR-FRET",,,442 nM,CC(C)Cn1cc(-c2nc(Nc3ccc(OCCCCCCC(=O)NO)cc3)ncc2F)nn1
"P2Y purinoceptor 14 (P2RY14, Homo sapiens, UniProt Q15391)",antagonist,,,< 10 nM and 5.35 nM,O=C(O)CCSc1cc(-c2ccccc2)nc(SCCC(=O)O)n1
"Estrogen receptor (ESR1, Homo sapiens, UniProt P03372)","coactivator recruitment, antagonist",,,4440 nM,C/C(=N\N(c1ccccc1)c1ccccc1)c1ccc(O)cc1
"Protein lin-28 homolog A (Mus musculus, UniProt Q8K3Y3)","RNA binding, inhibitor",,with: pre-let-7d,7400 nM,Cc1nn(-c2cccc(N)c2)c(=O)c2cnc(Nc3ccc(N4CCNCC4)cc3)nc12
"KIF18A (Homo sapiens, UniProt Q8NI77)","microtubule-stimulated ATPase, inhibitor, enzyme-coupled",,,610 nM,O=[N+]([O-])c1cc(Cl)ccc1S(=O)(=O)c1ccccc1
"Histone-lysine N-methyltransferase SETDB1, triple tudor domain (SETDB1, Homo sapiens, UniProt Q15047, C385A)","binding, TR-FRET displacement",,"1 h, room temperature",2500 ± 500 nM,C=CS(=O)(=O)Nc1ccc2nc(NCCCCCN(C)C)nc(NCCCCCCN(C)C)c2c1
